Published values from different studies.
Parts stem from different laboratories: compare values within a part only. Positions count from the first letter of the parent shown.

Set 1 — target: CREB3L1, bZIP domain (human); method: DHFR protein complementation; sample: yeast; reference: wild-type JUN-FOS pair; reading: higher = stronger binding
Setting: single substitutions, most at no-binding floor
Starting sequence: JUN, bZIP domain (human); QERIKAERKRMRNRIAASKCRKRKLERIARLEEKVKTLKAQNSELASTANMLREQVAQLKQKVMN; partner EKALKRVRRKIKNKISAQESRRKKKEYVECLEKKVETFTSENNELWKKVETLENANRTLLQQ
Change	binding fitness [natural log]
A29R	-1.3
E33F	-1.36
R30C	-1.5
L31P	-1.44
I28K	-1.45
L52Y	-1.53
S43D	-1.27
L38E	-1.47

Set 2 — method: RNAcompete; molecule type: RNA; sample: in vitro; tested at: 20 nM; setting: 7-mer, probes averaged, single round; reference: mean of 7-mers; reading: higher = stronger binding
Target: PABPC1L2, full length, GST fusion (mouse, UniProt A0ABA7IW68)
Residues (chain): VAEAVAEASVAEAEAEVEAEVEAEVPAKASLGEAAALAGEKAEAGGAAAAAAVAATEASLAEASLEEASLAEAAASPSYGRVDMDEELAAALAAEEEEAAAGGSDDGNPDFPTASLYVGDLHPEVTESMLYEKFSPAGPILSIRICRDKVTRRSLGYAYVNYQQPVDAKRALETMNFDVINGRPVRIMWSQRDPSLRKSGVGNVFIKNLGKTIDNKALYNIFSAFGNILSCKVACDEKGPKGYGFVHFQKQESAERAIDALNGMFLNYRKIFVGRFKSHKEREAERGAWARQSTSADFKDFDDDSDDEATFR
Strand	7-mer Z-score
ACAAUAC	0.189
UUGCCCA	-0.438
AUCCAAA	0.613
AGCAGAC	0.171
UACGAUA	0.108
AGAGUCG	-0.333
CAUUUGA	-0.302
CCGCGGC	-0.277

Set 3 — method: protein-binding microarray; molecule type: hairpin DNA; sample: in vitro; tested at: not given; reference: not given; reading: higher = stronger binding; shared flanks, not repeated: GAGGCCAT … ATGGCCTCACACTCTT
Target: POU domain, class 6, transcription factor 1, POU and homeodomain (POU6F1, Homo sapiens, UniProt Q14863, residues 311-611)
Setting: whole hairpin DNA, median over replicate spots
Target sequence (chain): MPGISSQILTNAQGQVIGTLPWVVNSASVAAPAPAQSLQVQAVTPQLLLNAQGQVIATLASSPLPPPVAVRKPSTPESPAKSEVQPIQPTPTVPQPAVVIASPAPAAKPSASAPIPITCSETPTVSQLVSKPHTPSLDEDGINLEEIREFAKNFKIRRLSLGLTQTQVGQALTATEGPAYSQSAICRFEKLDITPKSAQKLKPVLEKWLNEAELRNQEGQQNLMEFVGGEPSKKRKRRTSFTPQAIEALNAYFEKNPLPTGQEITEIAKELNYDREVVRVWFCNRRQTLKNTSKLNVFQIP
Strand	median fluorescence [a.u.]
AATTAGGAGCCTCCTGGCTCCTAATT	1610
CGTTAGGTGCCTCCTGGCACCTAACG (5mC at 9)	333
AATGAAGTGCCTCCTGGCACTTCATT	979
AATTAGGTGCCTCCTGGCACCTAATT	2140
AATTACGTGCCTCCTGGCACGTAATT	1050
AAAGAGGTGCCTCCTGGCACCTCTTT	454
AATTAGCGGCCTCCTGGCCGCTAATT (5mC at 15 27)	1650
AATCGGGTGCCTCCTGGCACCCGATT (5mC at 12)	410

Single results of other studies
Starting sequence: PafA, mature enzyme, eGFP fusion (Elizabethkingia meningoseptica, UniProt Q9KJX5); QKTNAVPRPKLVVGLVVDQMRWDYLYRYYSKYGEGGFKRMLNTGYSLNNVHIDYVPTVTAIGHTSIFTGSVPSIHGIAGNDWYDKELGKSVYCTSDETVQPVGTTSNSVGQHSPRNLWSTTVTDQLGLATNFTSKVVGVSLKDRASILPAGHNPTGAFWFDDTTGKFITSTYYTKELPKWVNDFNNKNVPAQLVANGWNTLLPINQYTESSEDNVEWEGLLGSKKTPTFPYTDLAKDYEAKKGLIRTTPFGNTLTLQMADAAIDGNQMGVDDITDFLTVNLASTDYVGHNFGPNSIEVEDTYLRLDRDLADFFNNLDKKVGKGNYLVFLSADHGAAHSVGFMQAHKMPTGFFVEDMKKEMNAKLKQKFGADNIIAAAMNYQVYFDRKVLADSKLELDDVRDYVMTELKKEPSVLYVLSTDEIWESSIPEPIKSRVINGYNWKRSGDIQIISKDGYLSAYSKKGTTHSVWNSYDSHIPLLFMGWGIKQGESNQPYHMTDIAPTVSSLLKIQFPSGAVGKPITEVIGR
Change	target	assay	test system	conditions	scale	measurement	result
K175G	tungstate, free oxyanion	microfluidic competitive inhibition	in vitro, cell-free expressed	not given, derived from inhibition constants, unchanged parent 2230 nM	lower = stronger binding	oxyanion analog dissociation constant	2.18 µM

A few entries again (set 2):
Strand	7-mer Z-score
UACGAUA	0.108
UUGCCCA	-0.438
AUCCAAA	0.613
AGCAGAC	0.171
